Experimental data gathered from unrelated publications.
Each line is one published result; not all experiments were run side by side. ± gives the spread as reported.

| SMILES | cell line | test | conditions | IC50 [nM] |
| --- | --- | --- | --- | --- |
| C=CC(=O)N1CCC(c2cc(Nc3cc4n(n3)CCOC4)c3ncnn3c2)C1 (single isomer, unassigned) | Ramos | calcium flux, FLIPR | 2 h preincubation, with: anti-IgM | > 1000 |
| CCOc1cc(C(C)(C)C)ccc1C1=N[C@@H](c2ccc(Cl)cc2)[C@@H](c2ccc(Cl)cc2)N1C(=O)N1CCN(CC(=O)NCCOCCOCCOCCNC(=O)CN2CCN(C(=O)N3C(c4ccc(C(C)(C)C)cc4OCC)=N[C@H](c4ccc(Cl)cc4)[C@@H]3c3ccc(Cl)cc3)CC2=O)C(=O)C1 | HCT-116 p53 knock-out | cell growth, CCK-8 | – | > 50000 |
| COc1cccc2c1C(=O)N1CCc3c([nH]c4ccccc34)C1N2Cc1ccc(C(=O)NCCCC(=O)NO)cc1 (racemic) | A549 | cell viability, CCK-8 | – | > 10000 |
| Nc1ccc(Cl)c2cccnc12 | HUVEC | cell proliferation, [3H]thymidine incorporation | – | 721 ± 300 |
| CN1c2ccc(F)cc2C(=O)N2CCc3c([nH]c4ccc(OCc5cccc(C(=O)NO)c5)cc34)C21 (centres unmarked) | MCF7 | cell viability, CCK-8 | – | > 20000 |
| CN(C)C(=O)Cn1cc(-c2ccc(-c3cncc4ccncc34)cc2)cn1 | OCI-Ly3 | cell growth, viability | – | < 1000 |
| CC[C@@H](C)[C@H](N)C(=O)N1Cc2ccc(F)cc2C1 | MV4-11 | cell viability, CellTiter-Glo | – | 200 |
| CC(=NN=c1[nH]c2cc(F)c(F)cc2n1C)c1ccc(F)cn1 | MDA-MB-453 | viability, MTT | 72 h | 17.5 |
